Assay results pooled from the literature.
Each line is one published result; not all experiments were run side by side. Several values in a cell are separate wells, animals, samples, runs or records.
Target: Dual specificity protein kinase CLK1 (CLK1, Homo sapiens, UniProt P49759)
Residues used in one study (P49759 1-484): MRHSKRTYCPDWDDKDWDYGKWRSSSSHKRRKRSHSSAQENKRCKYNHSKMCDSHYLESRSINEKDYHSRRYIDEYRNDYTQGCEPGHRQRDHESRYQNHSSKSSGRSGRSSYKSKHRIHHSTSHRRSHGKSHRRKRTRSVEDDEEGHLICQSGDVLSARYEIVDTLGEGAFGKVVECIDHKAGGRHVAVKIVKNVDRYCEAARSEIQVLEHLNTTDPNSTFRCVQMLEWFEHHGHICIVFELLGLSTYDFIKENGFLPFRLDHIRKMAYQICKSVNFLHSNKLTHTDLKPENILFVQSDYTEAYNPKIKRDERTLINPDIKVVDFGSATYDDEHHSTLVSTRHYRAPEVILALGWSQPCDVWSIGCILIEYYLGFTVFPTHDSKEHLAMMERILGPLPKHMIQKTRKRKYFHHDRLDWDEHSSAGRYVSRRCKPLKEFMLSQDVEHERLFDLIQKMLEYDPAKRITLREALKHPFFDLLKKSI

NC(=O)[C@@H](O)C[C@H]1CCc2sc3ncnc(O[C@H]4CC[C@H](N5CCOCC5)CC4)c3c21 gave an inhibition of 99% (enzyme activity, inhibitor; 10 µM).
The inhibition of C=CC(=O)Nc1cc(-c2nn(C3CCN(CCNC(=O)[C@H](C)CCC45CC6CC(CC(C6)C4)C5)CC3)c3ncnc(N)c23)ccc1Oc1ccccc1 is reported as -0.3% (inhibitor, KiNativ profiling; biochemical; 2 µM).
With C=CC(=O)N1CCc2ccc(-n3c(=O)ccc4cnc5ccc(-c6cnn(C)c6)cc5c43)cc21 the remaining binding was 96% (KINOMEscan; 1 µM; reference: DMSO control).
With CC(C)=CC1OC(C)(C)C2C=C3C(=O)C(Cl)=CC(O)C3C3C(O)C4OC4C(=O)C132 (stereo not drawn) the remaining binding was 93% (cell-free assay, competition with immobilised ligand; 10 µM).
For COCC12C(=O)NC3C4(C(OC)CC1O)C1CC5(O)C(OC)C(O)C(OC(C)=O)(C1C5OC(=O)c1ccccc1)C3(O)C(OC)C24 (stereo not drawn), the remaining activity was 98% and 97% (kinase activity, inhibitor, ProQinase kinase profiling; 25 µM; reference: control).
For Nc1ncc2c(n1)-c1c([nH]c3ccc(C4=CCOCC4)cc13)CCC2, the remaining binding was 74% (binding, competition with immobilised ligand; 1 µM).
For O=C(Cc1ccc(OCc2ccccc2)cc1)NC1(C(=O)O)CCN(C(=O)c2ccc(-c3cccc(Cl)c3)cc2)CC1, “activity vs control” read 111% (enzyme activity, inhibitor; 10 µM).
CNC(=O)C[C@H](Cc1ccc(C#N)cc1)NC(=O)c1cc(-c2ccc(CN[C@H](C)c3ccc(C)cc3)o2)ccc1Cl — result for “activity vs control”: 106% (enzyme activity, inhibitor; 1 µM).
COc1cc(Nc2nc(C)cc(-c3cnn4nc(OC)ccc34)n2)cc(C(F)(F)F)c1 gave a remaining binding of 100% (binding, competition with immobilised ligand; 1 µM).
N[C@H]1CC[C@H](Nc2nccc(-c3cccnc3Oc3ccc(NC(=O)NC4CC4)c4ccccc34)n2)CC1 — result for “log2 LFQ intensity”: 21.4 and 21.6 and 21.5 (kinobead competition pulldown; HEK293/HCT116 lysate mixture; 10 µM, 1 h, 4 °C; lower = stronger competition).
For CNC(=O)C1CCN(c2cc(C)c(F)cc2NC(=O)c2ccc(-c3cc(O)ccc3C)c(C)c2)CC1, the remaining binding was 91% (binding, competition with immobilised ligand; 1 µM).
The inhibition of CN1CCN(Cc2ccc(-c3ccc(CO[C@H]4CCC[C@@H]4NC(=O)c4cc(-c5cnn(C)c5)cnc4N)cc3)cc2)CC1 is reported as 7% (enzyme activity, inhibitor; 0.1 µM).
The inhibition of C=CC(=O)Nc1cccc(-c2cnc3[nH]cc(C(=O)NC(C)(C)C)c3n2)c1 is reported as 9% and 13% (kinase activity; 0.1 µM).
Cc1cccc(O[C@H]2CCC[C@@H](C(C)CNCc3ccncc3)C2)c1 (relative stereo) gave an inhibition of -8% (enzyme activity, inhibitor; 1 µM).
For Nc1ncc(-c2cc(-c3cnn(CC(F)(F)F)c3)ncc2F)nc1C(=O)NC1CNCC(F)C1 (stereo not drawn), the remaining activity was 57.6% (enzyme activity; 1 µM; reference: DMSO control).

For quick reference, copied from above:
NC(=O)[C@@H](O)C[C@H]1CCc2sc3ncnc(O[C@H]4CC[C@H](N5CCOCC5)CC4)c3c21 gave an inhibition of 99% (enzyme activity, inhibitor; 10 µM).
For CNC(=O)C1CCN(c2cc(C)c(F)cc2NC(=O)c2ccc(-c3cc(O)ccc3C)c(C)c2)CC1, the remaining binding was 91% (binding, competition with immobilised ligand; 1 µM).
